Measured values from different studies.
Parts stem from different laboratories: compare values within a part only. Values joined by “and” are separate records of one study, mostly repeats; a detail may differ. ± gives the spread as reported.
Chain of UniProt Q5XXA6 (whole entry, unmodified, looked up): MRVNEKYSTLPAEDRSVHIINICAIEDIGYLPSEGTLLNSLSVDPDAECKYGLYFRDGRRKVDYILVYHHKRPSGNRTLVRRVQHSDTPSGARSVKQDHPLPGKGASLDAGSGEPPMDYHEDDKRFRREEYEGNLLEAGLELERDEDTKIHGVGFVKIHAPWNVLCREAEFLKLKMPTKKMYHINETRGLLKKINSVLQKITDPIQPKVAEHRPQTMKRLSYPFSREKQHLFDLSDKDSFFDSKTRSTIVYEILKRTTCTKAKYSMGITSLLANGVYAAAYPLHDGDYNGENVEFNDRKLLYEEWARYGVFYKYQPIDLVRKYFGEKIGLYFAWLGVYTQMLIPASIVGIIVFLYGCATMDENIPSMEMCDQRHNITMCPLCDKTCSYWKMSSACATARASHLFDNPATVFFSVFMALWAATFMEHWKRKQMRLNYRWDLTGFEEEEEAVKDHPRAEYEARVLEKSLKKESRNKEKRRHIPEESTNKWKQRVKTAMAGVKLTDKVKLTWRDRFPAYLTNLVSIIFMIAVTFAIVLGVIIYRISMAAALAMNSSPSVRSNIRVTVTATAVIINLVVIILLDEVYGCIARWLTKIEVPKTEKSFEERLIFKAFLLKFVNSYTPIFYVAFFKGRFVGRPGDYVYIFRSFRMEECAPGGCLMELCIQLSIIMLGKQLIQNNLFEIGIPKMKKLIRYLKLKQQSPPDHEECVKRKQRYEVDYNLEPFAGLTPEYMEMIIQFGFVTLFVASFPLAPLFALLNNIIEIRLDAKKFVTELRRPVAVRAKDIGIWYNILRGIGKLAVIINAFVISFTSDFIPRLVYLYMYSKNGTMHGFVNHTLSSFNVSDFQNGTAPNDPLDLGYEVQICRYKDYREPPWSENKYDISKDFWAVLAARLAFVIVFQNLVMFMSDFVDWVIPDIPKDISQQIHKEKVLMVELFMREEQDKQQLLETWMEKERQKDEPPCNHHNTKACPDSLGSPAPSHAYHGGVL
Chain of UniProt P00519 (whole entry, unmodified, looked up): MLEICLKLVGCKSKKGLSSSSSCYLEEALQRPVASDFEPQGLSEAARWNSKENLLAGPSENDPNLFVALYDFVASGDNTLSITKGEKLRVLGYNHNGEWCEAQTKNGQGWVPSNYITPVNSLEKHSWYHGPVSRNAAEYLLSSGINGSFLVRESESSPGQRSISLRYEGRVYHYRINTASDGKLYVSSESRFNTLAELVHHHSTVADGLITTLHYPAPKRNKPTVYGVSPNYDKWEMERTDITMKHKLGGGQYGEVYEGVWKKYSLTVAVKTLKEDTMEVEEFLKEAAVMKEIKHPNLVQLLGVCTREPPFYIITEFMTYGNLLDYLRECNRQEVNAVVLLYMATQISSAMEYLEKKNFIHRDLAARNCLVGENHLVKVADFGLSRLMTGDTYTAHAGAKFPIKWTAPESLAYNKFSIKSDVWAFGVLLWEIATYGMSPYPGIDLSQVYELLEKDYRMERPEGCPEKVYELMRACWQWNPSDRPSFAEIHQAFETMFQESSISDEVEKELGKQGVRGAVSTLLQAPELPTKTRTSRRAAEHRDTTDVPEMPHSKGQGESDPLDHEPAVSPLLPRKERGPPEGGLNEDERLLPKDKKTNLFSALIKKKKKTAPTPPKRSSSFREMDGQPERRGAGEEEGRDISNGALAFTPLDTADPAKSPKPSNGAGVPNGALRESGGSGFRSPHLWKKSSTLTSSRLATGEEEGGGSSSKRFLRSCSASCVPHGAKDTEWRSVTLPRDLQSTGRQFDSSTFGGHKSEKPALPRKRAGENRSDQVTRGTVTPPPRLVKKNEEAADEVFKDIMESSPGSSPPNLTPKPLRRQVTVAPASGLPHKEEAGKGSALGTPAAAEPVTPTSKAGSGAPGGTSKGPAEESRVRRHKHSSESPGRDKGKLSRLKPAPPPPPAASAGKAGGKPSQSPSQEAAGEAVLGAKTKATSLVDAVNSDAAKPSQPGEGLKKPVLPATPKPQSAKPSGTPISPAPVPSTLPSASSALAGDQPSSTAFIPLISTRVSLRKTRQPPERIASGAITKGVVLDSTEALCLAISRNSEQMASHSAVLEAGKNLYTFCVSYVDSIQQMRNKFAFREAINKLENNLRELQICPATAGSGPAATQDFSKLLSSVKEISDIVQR

Set 1
Structure (SMILES): C=CCc1ccc(O)c(-c2ccc(O)c(CC=C)c2)c1
Effect on: chloride current
Method: whole-cell voltage clamp
Quantity: IC50
Anoctamin-1 (ANO1, Homo sapiens, UniProt Q5XXA6, del476-501/F803Y); inhibitor; mutant F777Y: 13.5 µM
Anoctamin-1 (ANO1, Homo sapiens, UniProt Q5XXA6, del476-501/R631K); inhibitor; R605K mutant at -80 mV: 15.6 µM
Anoctamin-1 (ANO1, Homo sapiens, UniProt Q5XXA6, del476-501/F807A); inhibitor; mutant F781A at 100 mV, with: 300 nM Ca2+: 18.4 ± 0.5 µM
Anoctamin-1 (ANO1, Homo sapiens, UniProt Q5XXA6, del476-501/F807I); inhibitor; F781I mutant at 60 mV: 6.38 µM
Anoctamin-1 (ANO1, Homo sapiens, UniProt Q5XXA6, del476-501/R561A); membrane voltage -40 mV: 6.57 µM
Anoctamin-1 (ANO1, Homo sapiens, UniProt Q5XXA6, D383A/del476-501); membrane voltage 100 mV: 4.95 µM
Anoctamin-1 (ANO1, Homo sapiens, UniProt Q5XXA6, del476-501/F628Y); inhibitor; mutant F602Y: 22.6 µM

Set 2
SMILES: O=C(NS(=O)(=O)c1ccc(NCC2CCOCC2)c([N+](=O)[O-])c1)c1ccc(N2CCN(Cc3ccc(C(F)(F)F)cc3-c3ccc(Cl)cc3)CC2)cc1Oc1cnc2[nH]ccc2c1
Method: competition with immobilised ligand
Concentration: 1 µM
Quantity: remaining binding
MAPK15 (Homo sapiens, UniProt Q8TD08); cell-free assay: 94%
MAST1 (Homo sapiens, UniProt Q9Y2H9); cell-free assay: 100%
AXL (Homo sapiens, UniProt P30530); cell-free assay: 88%
MAP3K10 (Homo sapiens, UniProt Q02779); cell-free assay: 95%
CAMKK1 (Homo sapiens, UniProt Q8N5S9); cell-free assay: 92%
GRK3 (Homo sapiens, UniProt P35626); cell-free assay: 78%
NUAK2 (Homo sapiens, UniProt Q9H093); cell-free assay: 88%
CLK3 (Homo sapiens, UniProt P49761); cell-free assay: 100%
PAK6 (Homo sapiens, UniProt Q9NQU5); cell-free assay: 73%
Tyrosine-protein kinase ABL1, phosphorylated (ABL1, Homo sapiens, UniProt P00519, F317L); cell-free assay: 100%
RET (Homo sapiens, UniProt P07949, V804L); cell-free assay: 100%
Myosin-IIIb (MYO3B, Homo sapiens, UniProt Q8WXR4); cell-free assay: 100%
IRAK1 (Homo sapiens, UniProt P51617); cell-free assay: 96%
RIOK2 (Homo sapiens, UniProt Q9BVS4); cell-free assay: 90%
MARK2 (Homo sapiens, UniProt Q7KZI7); cell-free assay: 100%
Tyrosine-protein kinase ABL1, phosphorylated (ABL1, Homo sapiens, UniProt P00519, E255K); binding: 91%

Set 3
Host: human
Matrix: microsomes or S9
Concentration: 2 µM
Time: 0.5 h
Quantity: remaining compound
c1cc2c(ccn2-c2ccc3ccnc(N4CCCC4)c3c2)cn1: 7.81%
CN(C(=O)c1ccc2cc[nH]c2c1)C1CCc2nn(C)c(=O)n2CC1 (stereo not drawn): > 100%
CCOc1cc(=O)n2c(c1C(=O)NCc1ccc3c(c1)OCO3)CCCC2: 76.8%
Cc1c(CC(=O)O)c2ccccc2n1C(=O)c1ccc(N2CCOCC2)nc1: 42.2%
CC(=O)N1c2ccc(S(=O)(=O)Nc3ccc(C(=O)c4c(C)nc5sccn45)cc3)cc2CC1C (stereo not drawn): 38.5%

Set 4
Target: DNA polymerase theta, ATPase domain (POLQ, Homo sapiens, UniProt O75417)
Chain of UniProt O75417 (whole entry, unmodified, looked up): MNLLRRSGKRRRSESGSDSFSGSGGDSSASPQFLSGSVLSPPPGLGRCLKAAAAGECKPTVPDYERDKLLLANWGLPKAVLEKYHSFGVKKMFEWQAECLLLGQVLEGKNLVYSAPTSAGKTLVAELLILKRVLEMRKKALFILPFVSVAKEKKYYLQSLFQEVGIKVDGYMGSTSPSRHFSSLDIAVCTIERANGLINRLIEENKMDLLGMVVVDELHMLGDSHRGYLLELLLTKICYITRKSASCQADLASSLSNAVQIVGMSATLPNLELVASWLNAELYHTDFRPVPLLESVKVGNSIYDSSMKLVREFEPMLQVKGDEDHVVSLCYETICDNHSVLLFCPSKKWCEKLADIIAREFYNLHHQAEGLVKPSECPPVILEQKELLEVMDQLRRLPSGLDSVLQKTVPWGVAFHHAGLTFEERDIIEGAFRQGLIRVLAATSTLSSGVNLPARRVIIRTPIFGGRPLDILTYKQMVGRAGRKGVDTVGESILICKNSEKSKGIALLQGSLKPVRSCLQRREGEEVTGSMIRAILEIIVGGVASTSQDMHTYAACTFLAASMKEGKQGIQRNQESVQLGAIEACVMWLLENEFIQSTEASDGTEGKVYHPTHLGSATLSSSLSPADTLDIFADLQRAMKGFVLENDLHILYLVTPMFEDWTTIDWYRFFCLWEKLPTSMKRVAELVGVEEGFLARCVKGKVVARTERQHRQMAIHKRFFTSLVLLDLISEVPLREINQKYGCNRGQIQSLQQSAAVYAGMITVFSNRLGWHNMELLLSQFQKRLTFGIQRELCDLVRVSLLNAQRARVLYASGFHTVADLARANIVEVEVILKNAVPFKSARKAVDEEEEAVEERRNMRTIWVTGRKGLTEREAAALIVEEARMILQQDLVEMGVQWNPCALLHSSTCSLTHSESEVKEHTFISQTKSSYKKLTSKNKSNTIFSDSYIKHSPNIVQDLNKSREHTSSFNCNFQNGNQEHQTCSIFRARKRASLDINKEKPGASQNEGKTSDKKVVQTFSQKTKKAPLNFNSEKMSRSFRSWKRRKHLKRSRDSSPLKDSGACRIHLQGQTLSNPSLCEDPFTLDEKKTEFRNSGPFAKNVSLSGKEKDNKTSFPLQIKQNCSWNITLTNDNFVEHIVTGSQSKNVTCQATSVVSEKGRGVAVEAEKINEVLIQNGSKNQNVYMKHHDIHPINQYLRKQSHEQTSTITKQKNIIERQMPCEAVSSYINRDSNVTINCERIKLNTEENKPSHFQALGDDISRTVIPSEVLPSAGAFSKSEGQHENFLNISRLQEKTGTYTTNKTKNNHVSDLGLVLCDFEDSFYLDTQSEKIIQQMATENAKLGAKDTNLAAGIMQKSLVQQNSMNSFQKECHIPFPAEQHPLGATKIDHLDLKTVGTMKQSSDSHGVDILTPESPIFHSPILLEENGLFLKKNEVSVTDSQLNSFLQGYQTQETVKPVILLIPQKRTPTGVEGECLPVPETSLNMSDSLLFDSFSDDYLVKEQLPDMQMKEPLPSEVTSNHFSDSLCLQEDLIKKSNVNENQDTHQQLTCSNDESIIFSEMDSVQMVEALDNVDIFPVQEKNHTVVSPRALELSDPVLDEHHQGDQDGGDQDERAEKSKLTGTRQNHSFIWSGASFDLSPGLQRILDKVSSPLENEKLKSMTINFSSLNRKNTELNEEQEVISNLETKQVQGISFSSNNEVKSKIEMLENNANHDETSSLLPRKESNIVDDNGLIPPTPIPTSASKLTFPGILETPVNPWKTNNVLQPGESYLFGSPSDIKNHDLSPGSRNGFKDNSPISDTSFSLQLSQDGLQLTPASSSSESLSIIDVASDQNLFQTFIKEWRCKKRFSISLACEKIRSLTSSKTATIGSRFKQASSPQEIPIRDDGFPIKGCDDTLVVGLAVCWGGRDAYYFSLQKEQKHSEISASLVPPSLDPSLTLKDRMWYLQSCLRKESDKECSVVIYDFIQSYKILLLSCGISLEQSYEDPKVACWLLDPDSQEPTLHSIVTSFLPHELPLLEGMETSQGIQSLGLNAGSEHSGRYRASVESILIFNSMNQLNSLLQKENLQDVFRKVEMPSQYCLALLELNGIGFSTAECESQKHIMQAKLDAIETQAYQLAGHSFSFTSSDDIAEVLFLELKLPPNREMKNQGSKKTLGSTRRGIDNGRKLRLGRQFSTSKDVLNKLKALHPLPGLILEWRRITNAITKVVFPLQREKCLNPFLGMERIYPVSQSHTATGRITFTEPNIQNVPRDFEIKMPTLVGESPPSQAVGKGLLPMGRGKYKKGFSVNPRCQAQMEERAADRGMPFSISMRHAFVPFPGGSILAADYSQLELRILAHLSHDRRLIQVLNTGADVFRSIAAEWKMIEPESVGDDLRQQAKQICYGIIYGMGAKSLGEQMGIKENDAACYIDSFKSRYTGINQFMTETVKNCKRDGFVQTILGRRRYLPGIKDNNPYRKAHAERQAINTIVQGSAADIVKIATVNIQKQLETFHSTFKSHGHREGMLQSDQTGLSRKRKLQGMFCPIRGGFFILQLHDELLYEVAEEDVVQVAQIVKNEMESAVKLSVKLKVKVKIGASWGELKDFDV
Effect on: enzyme activity
Mode: inhibitor
Concentration: 77 µM
Reference: untreated
Quantity: remaining activity
C[C@]12C=CC(=O)N[C@@H]1CC[C@@H]1[C@@H]2CC[C@]2(C)[C@@H](C(=O)Nc3cc(C(F)(F)F)ccc3C(F)(F)F)CC[C@@H]12: 90.8%
CC(=O)O[C@]1(C(C)=O)CC[C@H]2[C@@H]3C[C@H](C)C4=CC(=O)C=C[C@]4(C)[C@@]3(F)[C@@H](O)C[C@@]21C: 103%
CCOc1cc(CC(=O)N[C@@H](CC(C)C)c2ccccc2N2CCCCC2)ccc1C(=O)O: 95.7% and 87.4%
O=C(O)/C(=C/c1c(C(=O)O)[nH]c2cc(Cl)cc(Cl)c12)c1ccccc1: 61.2%
COc1ncc(-c2ccc3nccc(-c4ccnnc4)c3c2)cc1NS(=O)(=O)c1ccc(F)cc1F: 95%

Excerpt of the above (set 3):
CCOc1cc(=O)n2c(c1C(=O)NCc1ccc3c(c1)OCO3)CCCC2: 76.8%
Cc1c(CC(=O)O)c2ccccc2n1C(=O)c1ccc(N2CCOCC2)nc1: 42.2%
CC(=O)N1c2ccc(S(=O)(=O)Nc3ccc(C(=O)c4c(C)nc5sccn45)cc3)cc2CC1C (stereo not drawn): 38.5%
